Measured values collected from several papers.
Each line is one published result; not all experiments were run side by side. Values joined by “and” are separate records of one study, mostly repeats; a detail may differ. Numbers after ± are the reported error. ≈ marks a conversion by molar mass, not a printed value.

Structure (SMILES) | organism | test | system | conditions | how to read | measurement | result
CC[C@H](C)CCCCC(=O)N[C@@H](CCN)C(=O)N[C@H](C(=O)N[C@@H](CCN)C(=O)N[C@H]1CCNC(=O)[C@H]([C@@H](C)O)NC(=O)[C@H](CCN)NC(=O)[C@H](CCN)NC(=O)[C@H](CC(C)C)NC(=O)[C@@H](CC(C)C)NC(=O)[C@H](CCN)NC1=O)[C@@H](C)O | Escherichia coli | daily serial passaging | ATCC 8739 | highest sub-MIC, 17 days | relative to: initial MIC | MIC fold change | 2.16
CCCCCCCCCCCCCC(=O)N[C@H]1C(=O)N[C@@H](CN)C(=O)N[C@@H](CO)C(=O)N[C@@H](Cc2ccc(O)cc2)C(=O)O[C@H]1C | Staphylococcus aureus |  | SH1000 | added: phosphatidylethanolamine, molar ratio 1 |  | MIC | 2 µg/mL
CCCSC(SCCC)c1ccc(OCCNS(=O)(=O)c2ccc(Br)cc2)c(OC)c1 | Tobacco mosaic virus | inactivation activity | plant in vivo |  |  | EC50 | 43.2 ± 2.3 µg/mL
Cc1cc(C(=O)Nc2nc3cccc(C)c3n2[C@H]2CCCCN(C(=O)/C=C/CN(C)C)C2)ccn1 | Trypanosoma brucei brucei |  | 2T1 CLK1 overexpressing | 0.3125 µM, compound pretreated | relative to: maximum | survival | 208% and 218% and 205% and 210%
C[C@H](NC(=O)Cc1cc(F)cc(F)c1)C(=O)N[C@@H]1C(=O)N(C)c2ccccc2-c2ccccc21 | dengue virus type 2 | viral replication, Renilla luciferase reporter virus | Raji DC-SIGN | 48 h |  | EC50 | 30.5 nM
CCOC(=O)C1(Cc2c(F)cccc2F)Oc2cc(F)ccc2N(Cc2c(F)cccc2F)C1=O (stereo not shown) | Echinochloa crus-galli | fresh weight, greenhouse postemergence |  | postemergence, 150 g ai/ha, 21 days |  | inhibition | 48 ± 1.79%
CC[C@H](C)[C@H](NC(=O)[C@H](CCCNC(=N)N)NC(=O)[C@H](CO)NC(=O)[C@H](Cc1ccc(O)cc1)NC(=O)[C@@H](NC(=O)[C@@H](NC(=O)[C@H](C)NC(=O)CNC(=O)[C@H](CCCCN)NC(=O)[C@H](CCCCN)NC(=O)CCNC(=O)CCCCCNC(=O)[C@H](CCCNC(=N)N)NC(=O)CCCCCNC(=O)[C@H](CCCNC(=N)N)NC(=O)[C@H](CCCNC(=N)N)NC(=O)CCCCCNC(=O)[C@H](CCCNC(=N)N)NC(=O)[C@H](CCCNC(=N)N)NC(=O)CCCCCNC(=O)[C@H](CCCNC(=N)N)NC(=O)[C@H](CCCNC(=N)N)NC(=O)CCCCCNC(=O)[C@@H](N)CCCNC(=N)N)C(C)C)[C@@H](C)O)C(=O)N[C@@H](CO)C(=O)NCC(=O)N[C@@H](CCC(N)=O)C(=O)N[C@@H](Cc1ccc(O)cc1)C(=O)N[C@@H](CCCCN)C(=O)O | Escherichia coli |  | ATCC 25922, Mueller-Hinton broth | added: NaCl 150 mM |  | MIC | 48 µM
CC[C@H](C)[C@H](NC(=O)[C@H](C)NC(=O)CNC(=O)[C@H](C)NC(=O)[C@H](CCCCN)NC(=O)[C@H](CO)NC(=O)[C@H](C)NC(=O)[C@H](CCSC)NC(=O)CN)C(=O)N[C@@H](C)C(=O)NCC(=O)N[C@@H](CCCCN)C(=O)N[C@H](C(=O)N[C@@H](C)C(=O)N[C@@H](CCCCN)C(=O)N[C@H](C(=O)N[C@@H](C)C(=O)N[C@@H](CC(C)C)C(=O)N[C@@H](CCCCN)C(=O)N[C@@H](C)C(=O)N[C@@H](CC(C)C)C(N)=O)C(C)C)[C@@H](C)CC | Escherichia coli |  | 3538 nalidixic acid resistant | Loewe additivity, added: nalidixic acid |  | combination index | 1.01
[O-][N+]1=C(c2ccsc2)C2=NCCCN2c2ccccc21 | Prevotella spp. | bacterial growth |  |  |  | MIC50 | 0.125 µg/mL (≈ 0.441 µM)
NCCO.O=C(O)C(Cl)Cl | Eclipta prostrata |  |  | 15 mg/mL, 21 days, post-emergence, greenhouse |  | herbicidal inhibition | 0%
COc1cc(C(SC(C)C)SC(C)C)ccc1OCCNS(=O)(=O)c1ccc(Br)cc1 | tobacco mosaic virus | protective activity | in vivo plant |  |  | EC50 | 252 ± 2.6 µg/mL
CCOC(=O)C1(C)Oc2cc(F)ccc2N(C)C1=O (stereo not shown) | Eclipta prostrata | fresh weight, greenhouse postemergence |  | postemergence, 150 g ai/ha, 21 days |  | inhibition | 59.1 ± 2.47%
COc1ccccc1-c1n[nH]c2nc(N[C@H]3CC[C@H](NS(=O)(=O)CC(C)C)CC3)ncc12 | Leishmania donovani | cell growth | promastigotes, LdBOB CRK3 single knockout |  |  | EC50 | 0.47 ± 0.02 nM
C[N+]1=C2C(c3ccc([N+](=O)[O-])cc3)=[N+]([O-])c3ccccc3N2CCC1 | Parabacteroides distasonis and Bacteroides spp. | bacterial growth |  |  |  | MIC90 | 1 µg/mL
CCCSC(SCCC)c1ccc(OCCNS(=O)(=O)c2cccc(C(F)(F)F)c2)c(OC)c1 | Tobacco mosaic virus | inactivation activity | plant in vivo |  |  | EC50 | 495 ± 2.3 µg/mL
CCOC(=O)C1(Cc2cc(F)cc(F)c2)Oc2cc(F)ccc2N(Cc2cc(F)cc(F)c2)C1=O (stereo not shown) | Eclipta prostrata | fresh weight, greenhouse postemergence |  | postemergence, 150 g ai/ha, 21 days |  | inhibition | 53.5 ± 3.42%
Cc1cc(Cl)cc(S(C)=NC#N)c1NC(=O)c1cc(Br)nn1-c1ncccc1Cl (stereo not shown) | Spodoptera litura | leaf-dip | third instar larvae | 6.25 ppm, 72 h |  | mortality | 100%
CC(C)SC(SC(C)C)c1ccc(OCCNS(=O)(=O)c2ccc(Br)cc2)c(Cl)c1 | Tobacco mosaic virus | curative activity | plant in vivo |  |  | EC50 | 102 ± 2.8 µg/mL
C[N+]1=C2C(c3ccccc3)=[N+]([O-])c3ccccc3N2CCC1 | Prevotella spp. | bacterial growth |  |  |  | MIC50 | 4 µg/mL
CN(C(=O)c1ccn2ncc(-c3ccc(C(N)=O)cc3)c2c1)c1ccc(C#N)cn1 | Cryptosporidium parvum |  | UGA1 Nluc, IFN-gamma knockout C57BL/6 mice, faeces | oral, 10 mg/kg daily, 72 h post infection, treatment days 3-9 | higher means more parasites | faecal Nluc luminescence | 1350 a.u. and 1250 a.u. and 599 a.u. and 433 a.u. and 609 a.u.
CCCSC(SCCC)c1ccc(OCCNS(=O)(=O)c2cccc(Br)c2)c(Cl)c1 | Tobacco mosaic virus | protective activity | plant in vivo |  |  | EC50 | 307.7 ± 2.7 µg/mL
FC(F)(F)c1cccc(CNc2nc(NC3CCN(Cc4ccccc4)CC3)c3nc[nH]c3n2)c1 | Cryptococcus neoformans | mRNA level, RNA-seq, measured: MIOX CNAG_06623 |  | 48 µg/mL, 3 h | relative to: untreated | fold change | 4.43
CCn1cnc2c(Oc3ccc(/C=C/C(=O)c4ccc(NS(=O)(=O)c5ccccc5C)cc4)cc3)ncnc21 | Tobacco mosaic virus | inactivation activity | plant in vivo |  |  | EC50 | 91.7 ± 1.8 µg/mL
CCOC(=O)C1(CC#N)Oc2cc(F)ccc2N(CC#N)C1=O (stereo not shown) | Eclipta prostrata | fresh weight, greenhouse postemergence |  | postemergence, 150 g ai/ha, 21 days |  | inhibition | 61.3 ± 2.84%
CCCCSC(SCCCC)c1ccc(OCCNS(=O)(=O)c2c(F)cccc2F)c(OC)c1 | Tobacco mosaic virus | curative activity | plant in vivo |  |  | EC50 | 215 ± 2.9 µg/mL
[O-][N+]1=C(c2ccc(Cl)cc2)C2=NCCCN2c2ccccc21 | Parabacteroides distasonis and Bacteroides spp. | bacterial growth |  |  |  | MIC50 | 1 µg/mL (≈ 3.21 µM)
CCSC(SCC)c1ccc(OCCNS(=O)(=O)c2ccc(C)cc2)c(OC)c1 | Tobacco mosaic virus | protective activity | plant in vivo |  |  | EC50 | 177 ± 2.3 µg/mL
Cc1ccc(N2CC3CC(C2)N3C)cc1C(=O)NC1(c2ccc3c4c(cccc24)C(=O)N3C)CC1 | Human coronavirus NL63 | viral replication |  | 100 pM |  | inhibition | 0%

Repeated from above:
Structure (SMILES) | organism | test | system | conditions | how to read | measurement | result
[O-][N+]1=C(c2ccc(Cl)cc2)C2=NCCCN2c2ccccc21 | Parabacteroides distasonis and Bacteroides spp. | bacterial growth |  |  |  | MIC50 | 1 µg/mL (≈ 3.21 µM)
CCSC(SCC)c1ccc(OCCNS(=O)(=O)c2ccc(C)cc2)c(OC)c1 | Tobacco mosaic virus | protective activity | plant in vivo |  |  | EC50 | 177 ± 2.3 µg/mL
